Published values collected from several papers.
Values joined by “and” are separate records of one study, mostly repeats; a detail may differ. ± marks the error that the study gave.

Substance = NCCCC[C@@H]1NC(=O)[C@@H](Cc2c[nH]c3ccccc23)NC(=O)[C@H](c2ccccc2)NC(=O)[C@@H]2C[C@@H](OC(=O)NCCN)CN2C(=O)[C@H](Cc2ccccc2)NC(=O)[C@H](Cc2ccc(OCc3ccccc3)cc2)NC1=O; test system = human, serum; conditions = subcutaneous, 2.5 µg, 48 h; measurement = lipase level; result = 547 U/L
Substance = Nc1nc2c(ccc3ccccc32)s1; test system = mouse, plasma; conditions = intraperitoneal, 10 mg/kg, 24 h; measurement = free plasma concentration; result = 300 nM
Substance = CCCC[C@H](NC(C)=O)C(=O)N[C@H]1CCC(=O)NC[C@@H](C(=O)N[C@@H](Cc2c[nH]c3ccccc23)C(N)=O)NC(=O)[C@H](CCCNC(=N)N)NC(=O)[C@@H](Cc2ccccc2)NC(=O)[C@H](Cc2c[nH]cn2)NC1=O; test system = male Sprague-Dawley rat, plasma; conditions = subcutaneous, 5 mg/kg, multiple doses, once daily; measurement = Vd/F; result = 12.3 L/kg
Substance = O=C(Nc1c(Cl)cncc1Cl)c1ccc(OC(F)F)c(OCC2CC2)c1; test system = human, age 18 years or older, plasma; conditions = topical, 0.3 % cream, week 4, mean; measurement = trough plasma concentration; result = 1.99 ng/mL
Substance = CCOc1c([C@H](C)n2nc(C)c3c(N)ncnc32)cc(Cl)c(F)c1[C@@H]1CNC(=O)C1; test system = Japanese patients, plasma; conditions = oral, 20 mg once daily, cycle 1 day 15; measurement = t1/2; result = 10.4 ± 3.3 h
Substance = CC1(C)CCc2c(-c3ccc(O[11CH3])cc3F)cc(C(N)=O)nc2O1; test system = female cynomolgus monkey, arterial plasma; conditions = baseline; measurement = unbound fraction; result = 0.131 ± 0.006
Substance = C[C@]12CC[C@@H]3c4ccc(O)cc4CC[C@H]3[C@@H]1C[C@@H](O)[C@@H]2O; assay = GC-MS; test system = breast cancer women on NSAI, serum; conditions = vaginal, 0.03 mg, 0.5 h, day 0; measurement = maximum serum concentration; result = 0.0141 ng/mL
Substance = Cc1ccc(-c2cc(C(F)(F)F)nn2-c2ccc(S(N)(=O)=O)cc2)cc1; assay = equilibrium dialysis; test system = dogs, albumin H2 allele, plasma; conditions = 4 µM; measurement = unbound fraction; result = 1.69 ± 0.19%
Substance = O=S(=O)(c1cc(F)c(O)c2ncccc12)N1CCCC1; test system = rat Sprague-Dawley male, plasma; conditions = oral, 10 mg/kg, 4 h; measurement = free concentration; result = 23 nM
Substance = CC(C)[C@H](NC(=O)[C@@H]1CCCN1C(=O)[C@H](CCCNC(=N)N)NC(=O)[C@H](CS)NC(=O)[C@H](Cc1c[nH]c2ccccc12)NC(=O)[C@H](CCCNC(=N)N)NC(=O)[C@@H](Cc1ccccc1)NC(=O)[C@H](Cc1c[nH]cn1)NC(=O)[C@H](CCC(=O)O)NC(=O)[C@H](CS)NC(=O)[C@H](CS)NC(=O)[C@H](CCCCN)NC(=O)[C@@H]1CC(=O)N[C@@H](CCCNC(=N)N)C(=O)N[C@@H](C(C)C)C(=O)N[C@@H](CC(=O)O)C(=O)N[C@H](Cc2ccc(O)cc2)C(=O)N1)C(N)=O [technetium-99m labelled]; test system = female C57 mouse, B16/F1 melanoma, urine; conditions = intravenous, dose not given, 2 h, added: NDP-MSH 10 µg co-injected; measurement = urinary excretion; result = 76.1 ± 3.55%
Substance = Oc1ccc(C(c2ccc(O)cc2)(C(F)(F)F)C(F)(F)F)cc1; assay = item: free compound; test system = Hsd:Sprague Dawley rat female, plasma; conditions = oral gavage, 340 mg/kg single dose; measurement = elimination (k10) half-life; result = 2.29 h
Substance = colistin B methanesulfonate; assay = one-compartment PK model; test system = rat; conditions = i.p., 20 mg/kg colistin base activity; measurement = rate of conversion to colistin; result = 1.4 ± 0.125 mL/min/kg
Substance = CS(=O)(=O)OC[C@H](O)[C@@H]1CO1; test system = Wistar rat, female, red blood cells and plasma; conditions = intraperitoneal, 500 mg/kg treosulfan, 1 h; measurement = RBC/plasma partition coefficient; result = 0.48 and 0.7
Substance = CN/C(=N/CCSCc1nc[nH]c1C)NC#N; test system = human small intestinal microtissues; conditions = 10 µM, 2 h; measurement = Papp; result = 1.9 ± 0.2 ×10⁻⁶ cm/s
Substance = CC1(C)C2CC[C@]1(C)C(=O)/C2=C/c1cc2ccccc2o1; test system = human red blood cells; conditions = 10 to 300 µg/mL, 30 min; measurement = maximum hemolysis; result = < 15%
Substance = C=CC(N)CCC(=O)O (centres unmarked); test system = male Sprague-Dawley rat, plasma; conditions = oral, 1.0 mg/kg, formulation 3, added: low-fat infant formula 1500 mg/kg; measurement = AUC(0-inf); result = 1780 ± 37 ng·h/mL
Substance = Cc1cc(Nc2cc3ncccc3c(N[C@@H]3C[C@H]4CC[C@@H](C3)N4CCC#N)n2)n[nH]1; test system = beagle dog, female, plasma; conditions = oral, 30 mg/kg/day, last day of 13 weeks; measurement = Cmax; result = 46.9 ng/mL
Substance = Cn1nnc2c(C(N)=O)ncn2c1=O; test system = FVB mice, Abcg2 knockout; conditions = intravenous, 50 mg/kg; measurement = plasma half-life; result = 0.719 ± 0.017 h
Substance = Cc1cc(Nc2ncc(Cl)c(Nc3ccccc3S(=O)(=O)C(C)C)n2)c(OC(C)C)cc1C1CCNCC1; assay = item: total drug; test system = patients, plasma; conditions = oral, 750 or 450 mg/day, arithmetic mean; measurement = elimination half-life; result = 79.7 h
Substance = O=C(O)[C@H]1/C(=C/CO)O[C@@H]2CC(=O)N21; test system = male Sprague-Dawley rat, plasma; conditions = intravenous, 144 mg/kg; measurement = Vd; result = 66.7 L/kg
Substance = N=C(N)NC(=O)c1cnn(-c2cccc3ncccc23)c1C1CC1; test system = Sprague-Dawley rat liver S9, male; conditions = 1 µM, added: hydralazine 50 µM, no NADPH; measurement = CLint; result = 9.7 ± 1.9 mL/min/kg
Substance = Cc1c(C(=O)NN2CCCCC2)nc(-c2ccc(Cl)cc2Cl)n1-c1ccc(OS(=O)(=O)CCC(F)(F)F)cc1; assay = LC-MS/MS; test system = cynomolgus monkey, plasma; conditions = intravenous infusion, 0.3 mg/kg, 90 min, during PET; measurement = plasma concentration; result = 55 nM
Substance = S=C(NCCCc1c[nH]cn1)NCCCN(Cc1ccc(Cl)c(Cl)c1)c1ccc(Br)cn1; test system = male C57BL/6 mice, plasma; conditions = intraperitoneal, 30 mg/kg, 12 h; measurement = plasma concentration; result = 118 ng/mL
Substance = O=C1Nc2ccc(OC(F)(F)F)cc2C(=O)CCc2ccccc21; assay = nephelometry; test system = aqueous buffer; conditions = 30 min, pH 6.5; measurement = kinetic solubility; result = ≤ 12.5 µg/mL
Substance = [2H]C([2H])([2H])Oc1cc2c(cc1OC([2H])([2H])[2H])C1CC(=O)C(CC(C)C)CN1CC2 (centres unmarked); assay = item: deuterated α-HTBZ; test system = healthy human volunteers, plasma; conditions = oral, 18 mg single dose, standard meal; measurement = dose-normalized AUC(0-t); result = 15.7 ng·h/mL
Substance = CS(=O)(=O)Nc1ccc(C(=O)O[C@@H](Cc2c(Cl)c[n+]([O-])cc2Cl)c2ccc(OC(F)F)c(OCC3CC3)c2)cc1OCC1CC1; test system = human, plasma; conditions = inhalation, 1200 µg twice daily, day 1, median; measurement = tmax; result = 3 h
Substance = CC(=O)N[C@H](CCCCN)C(=O)N[C@H](CC(C)C)C(=O)N[C@@H](CN)C(=O)N[C@H](CO)C(=O)N[C@H](CC(C)C)C(=O)N[C@H](CC(C)C)C(=O)N[C@@H](CN)C(=O)N[C@@H](C(=O)N[C@H](CC(C)C)C(=O)N[C@H](CO)C(=O)N[C@@H](CN)C(=O)N[C@H](C)C(=O)N[C@H](CCCCN)C(=O)N[C@H](C)C(=O)N[C@H](C)C(=O)N[C@H](CCCCN)C(=O)N[C@H](CC(C)C)C(=O)N[C@@H](CN)C(=O)N[C@@H](C(=O)N[C@H](CC(C)C)C(=O)N[C@H](CC(C)C)C(=O)N[C@@H](CN)C(=O)N[C@H](C)C(=O)N[C@H](CC(C)C)C(=O)N[C@H](CO)C(=O)N[C@@H](CN)C(N)=O)[C@H](C)O)[C@H](C)O; assay = RP-HPLC temperature profiling; conditions = pH 2; scale = reference: random coil control; measurement = self-association parameter; result = 3.7 min
Substance = C=CC(=C)CC[C@]1(C)[C@H](C)C[C@H](OC(=O)CCCCC)[C@@]23C(=C[C@H](O)C[C@@H]12)[C@@H](OC(C)=O)O[C@H]3OC(C)=O; assay = haemolysis; conditions = 20 µM; measurement = haemolysis; result = 16.3%
Substance = CCOc1cccc(C(=O)Nc2ccc(-c3nc4ccccc4[nH]3)cc2)c1; test system = 0.1 M sodium acetate with 0.01% Triton X-100; conditions = pH 5.5; measurement = maximum solubility; result = 10 µM
Substance = CCC(=O)O[C@]1(C(=O)SCF)[C@H](C)C[C@H]2[C@@H]3C[C@H](F)C4=CC(=O)C=C[C@]4(C)[C@@]3(F)[C@@H](O)C[C@@]21C; test system = rat; conditions = intravenous, 90 nmol/kg; measurement = blood clearance; result = 192 mL/min/kg
Substance = CN[C@@H]1[C@H](O)[C@H](NC)[C@H]2O[C@]3(O)[C@H](O[C@@H]2[C@H]1O)O[C@H](C)C[C@H]3NC(=O)Cc1cc(Cl)c(C)cn1; assay = glutathione conjugation; test system = rat liver S9; conditions = 100 µM, 2 h, pH 7.4, added: glutathione 0.2 mM; measurement = parent remaining; result = 12.9%
Substance = O=C(O)[C@H](c1ccccc1Cl)N1CCc2sccc2C1; assay = HPLC-MS/MS; test system = feline citrate plasma; conditions = 48 h, -20 °C, storage stability; measurement = deviation from nominal; result = 16%
Substance = CCCCCCN(CCCCCC)CC(=O)N(CC(=O)N(CCCCN)CC(=O)N(CCN)CC(=O)N(CC(N)=O)C1CCCCC1)C1CCCCC1; assay = preparative RP-HPLC C18; test system = water to acetonitrile gradient; conditions = 0.05% TFA in eluent; scale = higher = more hydrophobic; measurement = acetonitrile at elution; result = 64.5%
Substance = CO[C@H]1C[C@@H]2CC[C@@H](C)[C@@](O)(O2)C(=O)C(=O)N2CCCC[C@H]2C(=O)O[C@H]([C@H](C)C[C@@H]2CC[C@@H](O)[C@H](OC)C2)CC(=O)[C@H](C)/C=C(\C)[C@@H](O)[C@@H](OC)C(=O)[C@H](C)C[C@H](C)/C=C/C=C/C=C/1C; test system = human, whole blood; conditions = oral, 60 mg, compound alone; measurement = Cmax; result = 57.7 ng/mL
Substance = COc1cc(Nc2ncc3c(n2)-c2ccc(Cl)cc2C(c2c(F)cccc2OC)=NC3)ccc1C(=O)O; test system = children, UGT1A1 extensive metabolizers, grade ≥2 toxicity, plasma; conditions = oral, 80 mg/m2, day 4; measurement = trough concentration; result = 1170 ± 1150 nM
Substance = O=C(O)/C=C/c1ccc(O)c(O)c1; assay = UPLC-MS/MS; test system = Wistar rat, microcirculation dysfunction model, plasma; conditions = oral, 100 mg/kg Salvia miltiorrhiza stem-leaf extract FT; measurement = MRT(0-inf); result = 25.9 ± 33.6 h
Substance = CNCCCC1(c2ccc(F)cc2)OCc2cc(C#N)ccc21 (centres unmarked); test system = CD-1 mouse, pregnant E14 and E18, fetal brain; conditions = intraperitoneal, 20 mg/kg citalopram maternal; measurement = time fetal brain level decreasing; result = 2.5 h
Substance = Cc1nc2cccc(OCC(C)(C)C(=O)NC(C)C)c2c(N)c1C(=O)O; test system = female Sprague-Dawley rat, plasma; conditions = intravenous, 1 mg/kg, single dose; measurement = Vd; result = 0.321 L/kg
Substance = CCN(CC)CCNC(=O)c1c(C)[nH]c(/C=C2\C(=O)Nc3ccc(F)cc32)c1C; test system = human; conditions = 37.5 mg daily, 4 wk on 2 wk off, 11 months; measurement = LVEF; result = 20 to 25%
Substance = O=C1N=C(N2CCOCC2)CN1c1ccc(Cl)cc1; test system = beagle dog, both sexes, plasma; conditions = oral, 30 mg/kg, tablets, fasted, day 5; measurement = CL/F; result = 6.83 mL/min/kg
Substance = CCCC[C@H](NC(=O)CN1CCN(CC(=O)O)CCN(CC(=O)O)CCN(CC(=O)O)CC1)C(=O)N[C@H]1CC(=O)NCCCC[C@@H](C(N)=O)NC(=O)[C@H](Cc2c[nH]c3ccccc23)NC(=O)[C@H](CCCNC(=N)N)NC(=O)[C@@H](Cc2ccccc2)NC(=O)[C@H](Cc2c[nH]cn2)NC1=O [indium-111 labelled]; test system = B16/F1 melanoma-bearing C57 mouse, female; conditions = intravenous, dose not given, 2 h, added: NDP blockade; measurement = urinary excretion; result = 92.2 ± 1.56%

A few entries again:
Substance = CS(=O)(=O)Nc1ccc(C(=O)O[C@@H](Cc2c(Cl)c[n+]([O-])cc2Cl)c2ccc(OC(F)F)c(OCC3CC3)c2)cc1OCC1CC1; test system = human, plasma; conditions = inhalation, 1200 µg twice daily, day 1, median; measurement = tmax; result = 3 h
Substance = CC(=O)N[C@H](CCCCN)C(=O)N[C@H](CC(C)C)C(=O)N[C@@H](CN)C(=O)N[C@H](CO)C(=O)N[C@H](CC(C)C)C(=O)N[C@H](CC(C)C)C(=O)N[C@@H](CN)C(=O)N[C@@H](C(=O)N[C@H](CC(C)C)C(=O)N[C@H](CO)C(=O)N[C@@H](CN)C(=O)N[C@H](C)C(=O)N[C@H](CCCCN)C(=O)N[C@H](C)C(=O)N[C@H](C)C(=O)N[C@H](CCCCN)C(=O)N[C@H](CC(C)C)C(=O)N[C@@H](CN)C(=O)N[C@@H](C(=O)N[C@H](CC(C)C)C(=O)N[C@H](CC(C)C)C(=O)N[C@@H](CN)C(=O)N[C@H](C)C(=O)N[C@H](CC(C)C)C(=O)N[C@H](CO)C(=O)N[C@@H](CN)C(N)=O)[C@H](C)O)[C@H](C)O; assay = RP-HPLC temperature profiling; conditions = pH 2; scale = reference: random coil control; measurement = self-association parameter; result = 3.7 min
Substance = C=CC(=C)CC[C@]1(C)[C@H](C)C[C@H](OC(=O)CCCCC)[C@@]23C(=C[C@H](O)C[C@@H]12)[C@@H](OC(C)=O)O[C@H]3OC(C)=O; assay = haemolysis; conditions = 20 µM; measurement = haemolysis; result = 16.3%
Substance = CCOc1cccc(C(=O)Nc2ccc(-c3nc4ccccc4[nH]3)cc2)c1; test system = 0.1 M sodium acetate with 0.01% Triton X-100; conditions = pH 5.5; measurement = maximum solubility; result = 10 µM
